# Results pooled from the literature.
# Every numbered part comes from another study and shows a few of its results, in no order.

# Study 1
# Target: RNA binding protein fox-1 homolog 2, RRM domain, GST-SBP tag (RBFOX2, Homo sapiens, UniProt O43251-10, residues 100-194)
# Method: RNA Bind-n-Seq
# Form: RNA
# Matrix: in vitro
# Concentration: 365 nM
# Notes: natural RNA segment, single round, ends assumed
# Relative to: no-protein control
# Reading: higher = stronger binding
# Target sequence (chain): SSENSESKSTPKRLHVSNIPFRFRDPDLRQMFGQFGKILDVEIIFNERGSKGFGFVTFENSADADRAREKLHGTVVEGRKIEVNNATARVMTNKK
Sequence,RBNS enrichment (R)
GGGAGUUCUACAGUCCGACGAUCAAGGAGAAAAUAGAUAAUUUACAAGAUAUUAUUAAUUUUUAUUUAUUUUUCUUGGGAAUUGAAAAAAAUUGAAAUAAAUAAAAAUGCAUUGAACAUCUUGCAUUCAAAAUUGGAAUUCUCGGGUGCCAA,2.64
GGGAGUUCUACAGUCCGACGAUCCUCCUCUUCUUCCAUCUCCCUCACCCAUGCCCCCACCCAAUCUAAAGAGACAGUGCUGUACAUUCUCAUAGAGAUAGAGAAGAUCUAAAAAGUUGAGACUACUCAAUCCAUGGAAUUCUCGGGUGCCAA,0.686
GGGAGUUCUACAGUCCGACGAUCGCAAGGAUUAGCCAAAUCUUCUUAUUGAAGAAAGAAGAAAAGUGAAGAGUGGUUACCUAUACCUAGCAUAGUACAAUCAGAACCUCGUGGAGACCACCGGGGACAGGCUUUGGAAUUCUCGGGUGCCAA,0.603
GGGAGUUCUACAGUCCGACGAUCGGGAUGGAAAGCGCAUGGGCCUGUGUCCAUUGUAGAUUUCCUUCUAGAUUUCUGUGUACACACACUUGAUUGUUCUGGAUGAAUGUCUUUUUUAAUACUCCGAAAAUUUCUGGAAUUCUCGGGUGCCAA,3.19
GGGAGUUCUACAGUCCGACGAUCGAACCGGACUUGUGAAUCCUAGGCUGUGUCUCUGCUCUCCUUUCUCAGCCACUGGUACUCUGAGGCCCUUGAGGCUCUUUGUAAAGCUCUUUUAUAUCUAUUGACAAAGGUGGAAUUCUCGGGUGCCAA,0.828
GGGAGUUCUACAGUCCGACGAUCUGGGCUGGGCUGAAAGUGAAAUAUUUUCUCCCUGGAUUUUUACCAGCCAUCACCUUGGACCACCAAGCCUUGAAUGGUGUUGCCAGUUGGCUCCUCCUGGGGAGGACUUUUGGAAUUCUCGGGUGCCAA,0.402
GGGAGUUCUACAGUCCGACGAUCGGUUUUGUUAUCCUUCGGAAGAACCCCAAUUAUGAUCUCUAGUGACCACCAGGGGCUCUGAACUGCAGCUGAUGUUAUCAGCAGGCCAUGCAUCCUGCUGCCAAGGGUGGUGGAAUUCUCGGGUGCCAA,0.609
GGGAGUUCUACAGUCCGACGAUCUUUUCUGUAUUUUUCCCCCUCUCUUUAAAACAUCACUGAAAUUUCAAUAAAUUUUUAUUGAAAUGUCUUGGGCCUUGUGUUAAAUGUUUUUUCUUUGGGAACCUUUCCUGUGGAAUUCUCGGGUGCCAA,0.596
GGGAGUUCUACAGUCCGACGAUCCUGUCAGUGGAUCCGUGCUUUGUCGGCCAGCGUUUCUGCAGUCUUUGUAAAGGCCCCACGAGAGCGGGCCAGGCCGUGUGCCUCAGGCCCUUCUCCCUGGGUGUGCUUAAUGGAAUUCUCGGGUGCCAA,0.267
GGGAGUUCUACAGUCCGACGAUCGGAUGCUGGGUGGGUGUGUGGUCCAUGUUCAGCGUUCUAGCAACACGUGUGUGUGUGUGUGUGUAAAGGCUAUGCAGCCAAAAUACCAUCUGGCCAGACGGGCCCACCCAUGGAAUUCUCGGGUGCCAA,0.414
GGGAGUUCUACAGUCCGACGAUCCUCCCAGGCAGUGCUCAUGCGCUGGCCGUCGGGGGAGGCAGGGGCACAGCCUCCAUGUGCGCGCGCGUGUGGAGCUGUGUGCACCGCAUGUGUGCUUUCCACAGGGGCGUUGGAAUUCUCGGGUGCCAA,0.376
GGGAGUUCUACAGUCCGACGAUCUUUGCUGCUUUUGUUCGCAUUGGAACGUUGGACAUGCCAUAUGAUACUGGCUUAGUAAUCAAUACCAGUAAUUACCAUAGAACUUUAUCUGACUACCCAACCAUAUCAAAUGGAAUUCUCGGGUGCCAA,0.202

# Study 2
# Target: Sal-like protein 4, full length isoform A (SALL4, Homo sapiens, UniProt Q9UJQ4, residues 1-1053)
# UniProt Q9UJQ4, sequence (whole entry, looked up): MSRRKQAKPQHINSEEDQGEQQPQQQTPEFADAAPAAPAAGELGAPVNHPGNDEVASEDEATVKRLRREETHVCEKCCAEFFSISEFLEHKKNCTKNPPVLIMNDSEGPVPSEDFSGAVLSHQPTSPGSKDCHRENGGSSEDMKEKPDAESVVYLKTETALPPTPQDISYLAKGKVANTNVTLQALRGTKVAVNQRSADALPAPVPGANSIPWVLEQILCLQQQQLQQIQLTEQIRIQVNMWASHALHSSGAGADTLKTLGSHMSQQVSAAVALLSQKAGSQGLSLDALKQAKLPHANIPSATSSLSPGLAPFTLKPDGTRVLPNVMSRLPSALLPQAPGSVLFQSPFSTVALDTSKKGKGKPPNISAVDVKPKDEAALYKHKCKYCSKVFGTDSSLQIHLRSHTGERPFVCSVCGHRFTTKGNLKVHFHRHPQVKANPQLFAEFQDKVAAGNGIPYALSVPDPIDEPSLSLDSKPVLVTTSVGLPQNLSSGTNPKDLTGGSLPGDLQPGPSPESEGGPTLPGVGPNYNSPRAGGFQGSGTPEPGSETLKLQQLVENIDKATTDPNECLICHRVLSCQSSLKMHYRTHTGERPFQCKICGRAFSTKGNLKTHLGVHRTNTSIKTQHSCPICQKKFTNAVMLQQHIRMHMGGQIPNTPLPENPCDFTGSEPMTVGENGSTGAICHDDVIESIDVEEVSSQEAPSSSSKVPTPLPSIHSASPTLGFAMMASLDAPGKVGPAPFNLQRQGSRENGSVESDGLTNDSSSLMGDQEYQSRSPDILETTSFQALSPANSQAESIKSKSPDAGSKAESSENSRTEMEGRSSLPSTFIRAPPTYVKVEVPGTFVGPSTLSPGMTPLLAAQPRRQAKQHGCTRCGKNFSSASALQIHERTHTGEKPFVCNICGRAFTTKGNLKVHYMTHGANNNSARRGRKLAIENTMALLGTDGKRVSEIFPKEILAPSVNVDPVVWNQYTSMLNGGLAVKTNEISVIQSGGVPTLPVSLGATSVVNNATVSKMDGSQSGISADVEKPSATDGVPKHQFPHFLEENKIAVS
# Method: universal PBM
# Form: double-stranded DNA, one strand shown
# Matrix: in vitro
# Concentration: 600 nM
# Notes: 8-mer, flanks averaged, mean of replicates
# Reading: higher = stronger binding
Sequence,E-score
TACTTCCA,0.0614
GACGGAGA,-0.0136
CACAGATC,-0.0525
TCAACACA,0.191
AAATAAAG,0.168
ACCAGCGT,-0.133
CGCACGAC,-0.242
ACAGACTA,0.0108
GACTCACA,-0.0705
AACTAAGT,0.151
ATAGCTAC,0.194
CCTACACG,-0.197
AAGGACAT,0.0459
AGACTTCA,0.022
ATGGGTGA,-0.099
CACCGACG,-0.3
GAGAAGCC,-0.285
AAAATTGG,0.196
ATTGTGGA,0.205
TTATTCAA,0.391
GAGCGACC,-0.241
GTTACCGA,-0.145
CGCTGGAC,-0.3
ATTCCGAG,-0.0135
AGAATCGA,0.0288

# Study 3
# Target: Probable WRKY transcription factor 33, N-terminal DNA-binding domain (WRKY33, Arabidopsis thaliana, UniProt Q8S8P5, residues 169-264)
# Method: DNA-protein interaction ELISA
# Form: double-stranded DNA, one strand shown
# Matrix: in vitro, bacterial lysate
# Concentration: not given
# Notes: whole dsDNA probe, crude lysate protein
# Relative to: highest signal in screen
# Reading: higher = stronger binding
# Construct (chain): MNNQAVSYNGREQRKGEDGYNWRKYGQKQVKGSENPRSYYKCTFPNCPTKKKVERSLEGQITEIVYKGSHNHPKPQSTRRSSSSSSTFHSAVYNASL
Sequence,relative absorbance
AAAAAACGTATTGATGTCTATTTCAAAAAA,30.8 % of maximum
AAAAAACCCGGTTGGAGAAAATAATTAAAA,20.5 % of maximum
AAAAAAATCCATATTATTGCTACCCGAAAA,22.4 % of maximum
AAAAAATGTGCCCGTGTGTGCTCGCGAAAA,20 % of maximum
AAAAAATAGCGACTTCGACTCTCAGTAAAA,13.3 % of maximum
AAAAAAGATCTAGGCCTTGGGACTCAAAAA,25.8 % of maximum
AAAAAAGTACGGATGCCCGCGCGTATAAAA,11 % of maximum
AAAAAAGTGTGTGGCTCAGGATTCCCAAAA,20.7 % of maximum
AAAAAACCAGCCTCAGTCCTGAACAAAAAA,33.7 % of maximum
AAAAAATTACGTTTGTATTTGTAAAA,25.7 % of maximum
AAAAAAGAAATACCAGAAACTATCATAAAA,17.7 % of maximum
AAAAAACCACCCAGTCTGTTTCTACTAAAA,22.7 % of maximum
AAAAAAAATTAGTCTCTTCGTCTCCCAAAA,21.6 % of maximum
AAAAAAAGTTGTACTTATTATACTTTAAAA,36.2 % of maximum

# Study 4
# Target: Histone acetyltransferase KAT6A, both winged helices, GST fusion (KAT6A, Homo sapiens, UniProt Q92794, residues 1-181)
# Method: protein binding microarray
# Form: double-stranded DNA, one strand shown
# Matrix: in vitro
# Concentration: not given
# Notes: 8-mer, flanks averaged, mean of 2 arrays, mostly near background
# Relative to: not given
# Reading: higher = stronger binding
# Target sequence (chain): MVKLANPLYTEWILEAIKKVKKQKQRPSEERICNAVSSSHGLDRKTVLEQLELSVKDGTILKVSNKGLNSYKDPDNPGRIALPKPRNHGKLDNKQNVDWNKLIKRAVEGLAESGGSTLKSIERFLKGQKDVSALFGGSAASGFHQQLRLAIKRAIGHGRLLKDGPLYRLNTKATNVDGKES
Sequence,E-score
CACACTCG,-0.0576
ACCTCCCA,-0.0689
CAGGTCGG,0.0521
ACTAAAAA,0.0111
AATTCATG,-0.0338
CAGTTCAC,0.0172
CACGATAC,-0.0218
GCCAAGAC,-0.094
GTGGCAAC,-0.0334
CGAGTGTC,-0.0161
CGCTCTTA,0.166
AAGACGGT,-0.0706
ACCAGAGT,-0.0362
ACTATTAG,-0.127
ATTATTGG,-0.0496
AGGCTGTA,-0.149
AATATGCT,-0.00526
CGAGTGAG,-0.0554
GTCGGCCA,0.0821
AGTGAGCC,-0.175
GAGTAGGC,-0.0865

# Study 5
# Target: Interferon regulatory factor 7, full length, phosphomimetic (IRF7, Homo sapiens, UniProt Q92985, residues 1-503, S101K/S471D/S472D/S475D/S476D/S477D/S483D/S484D/S487D)
# UniProt Q92985, sequence (whole entry, unmodified, looked up): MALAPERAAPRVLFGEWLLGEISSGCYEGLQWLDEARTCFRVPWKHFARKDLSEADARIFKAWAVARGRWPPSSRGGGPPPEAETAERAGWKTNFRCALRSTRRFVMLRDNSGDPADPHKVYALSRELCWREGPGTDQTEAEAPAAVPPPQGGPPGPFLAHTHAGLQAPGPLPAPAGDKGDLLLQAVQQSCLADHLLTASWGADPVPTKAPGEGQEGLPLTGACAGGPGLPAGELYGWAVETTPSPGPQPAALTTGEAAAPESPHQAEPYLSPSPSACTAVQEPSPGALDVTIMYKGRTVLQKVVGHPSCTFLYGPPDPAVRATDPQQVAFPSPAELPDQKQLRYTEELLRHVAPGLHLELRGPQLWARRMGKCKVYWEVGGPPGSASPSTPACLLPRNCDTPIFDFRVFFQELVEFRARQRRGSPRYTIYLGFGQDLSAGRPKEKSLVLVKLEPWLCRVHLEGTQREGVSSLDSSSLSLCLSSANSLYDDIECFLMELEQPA
# Method: protein-binding microarray
# Form: double-stranded DNA, one strand shown
# Matrix: in vitro
# Concentration: 250 nM
# Notes: 60-bp whole probe
# With: salmon DNA 0.4 mg/ml
# Relative to: random background probes
# Reading: higher = stronger binding
# All sequences stand within: GCCTAGCAC … GTCTTGATTCGCTTGACGCTGCTG
Sequence,log fluorescence [z-score]
CACGGTATCGGTTTCGGGACGTGCTAG,7.07
GACGGTTTCCTTTCCCTGCCGTGCTAG,4.41
GACGCACTGCTACTGCTGACGTGCTAG,-0.353
TCACTTTTGAGAGATGGAACTGTGCTA,0.598
CTAGGACTGCTTTTCCTTTAGTGCTAG,1.72
GACGGTTTCCTTAGCCTGACGTGCTAG,0.943
TTAGGTTTCCTTTCCCTCTAGTGCTAG,4.58
GACGGTCTCCAACTGCTGACGTGCTAG,-0.216
TCACACATGCATCTCCCACTGTGCTAG,-0.175
GACGTTATCGACTTTCGGGACGTGCTA,0.0322
AGGCATCTCGGAGATCTCGAAGTGCTA,-0.743
GAAAGCCTGCTGCCAGTCTGGTGCTAG,-0.805
GACGAACGGGGGACTGGAGACGTGCTA,0.501
TCATGAATGCCCTTCCATACTGTGCTA,-0.343
AATGATTGGTTGAACATGAAGTGCTAG,-0.42
TCATTTTTTGTAATCGAACTGTGCTAG,0.652
TTAGGACTGGACTATCGGTAAGTGCTA,-0.292
GACGGTTTCCTTATACTGACGTGCTAG,2.92
TTAGGACTGGGCATCGGTTAGTGCTAG,-0.121
TTAGGACTGGGGTAACGGTTAGTGCTA,-0.382
GACCATCTCAGACTGGAGACGTGCTAG,0.118
TTAGTTTTCGGTTCCGGTTAGTGCTAG,8.23
TCAACTCTTTCTGTCAGACTGTGCTAG,0.621
TTAGGTAACGGTTTCGGTTAGTGCTAG,9.55
ATCTTTTTCCCTATTATATAGTGCTAG,2.55

# Some of these lines once more (study 5):
Sequence,log fluorescence [z-score]
GACGGTCTCCAACTGCTGACGTGCTAG,-0.216
TCACACATGCATCTCCCACTGTGCTAG,-0.175
GACGTTATCGACTTTCGGGACGTGCTA,0.0322
AGGCATCTCGGAGATCTCGAAGTGCTA,-0.743
GAAAGCCTGCTGCCAGTCTGGTGCTAG,-0.805
GACGAACGGGGGACTGGAGACGTGCTA,0.501
TCATGAATGCCCTTCCATACTGTGCTA,-0.343
AATGATTGGTTGAACATGAAGTGCTAG,-0.42
TCATTTTTTGTAATCGAACTGTGCTAG,0.652
